Measurements from different studies.
A part holds a random share of what one study measured. Positions count from the first letter of the parent shown.

Set 1
Target: CCNB3, cyclin fold, Cln2 fusion (human)
Technique: yeast growth competition, sequencing
Medium: yeast
Notes: weak parent motif
Relative to: not given
Direction: higher = stronger binding
Endpoint: normalised enrichment score
Parent: E2F1 docking peptide (human); PPVKRRLDLETDH
PPVKRRNDLETDH [L7N]: 0.432
PPVKRRLMLETDH [D8M]: 0.222
PPVKSRLDLETDH [R5S]: 0.0395
PPVKRRHDLETDH [L7H]: 0.00925
PPVKRRLDLRTDH [E10R]: 0.0982
PPVARRLDLETDH [K4A]: 0.834
PPVKRRLDLFTDH [E10F]: 0.0413
PVVKRRLDLETDH [P2V]: 0.334
PWVKRRLDLETDH [P2W]: 0.0616
PPHKRRLDLETDH [V3H]: 0.17
PPVKRRLKLETDH [D8K]: 0.463
SPVKRRLDLETDH [P1S]: 0.416
PPYKRRLDLETDH [V3Y]: 0.185
PPVKRRYDLETDH [L7Y]: 0.116
PPVKRRFDLETDH [L7F]: -0.0776
PPVKRRLDLETDA [H13A]: 0.415
PPVKRRLDLPTDH [E10P]: 0.192
PPVPRRLDLETDH [K4P]: 0.14
PKVKRRLDLETDH [P2K]: 0.213
PPVKRRLDLETDG [H13G]: 0.957
PPVKRRLDLEFDH [T11F]: 0.588
PMVKRRLDLETDH [P2M]: -0.216
PPVKRRLDLETHH [D12H]: 0.104

Set 2
Target: ABI1, truncated, D143A, DHFR fusion (Arabidopsis thaliana)
Technique: DHFR PCA, deep sequencing
Medium: yeast
Notes: methotrexate growth selection, single substitutions
Added: (+)-ABA 58 µM
Relative to: wild-type fitted maximum
Direction: higher = stronger binding
Endpoint: relative binding score
Parent: PYL1, truncated, DHFR fusion (Arabidopsis thaliana); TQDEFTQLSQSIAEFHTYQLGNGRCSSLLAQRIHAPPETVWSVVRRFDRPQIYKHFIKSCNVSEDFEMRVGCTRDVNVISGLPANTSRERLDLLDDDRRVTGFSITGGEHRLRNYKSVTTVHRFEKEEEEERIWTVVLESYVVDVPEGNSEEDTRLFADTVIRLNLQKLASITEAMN; partner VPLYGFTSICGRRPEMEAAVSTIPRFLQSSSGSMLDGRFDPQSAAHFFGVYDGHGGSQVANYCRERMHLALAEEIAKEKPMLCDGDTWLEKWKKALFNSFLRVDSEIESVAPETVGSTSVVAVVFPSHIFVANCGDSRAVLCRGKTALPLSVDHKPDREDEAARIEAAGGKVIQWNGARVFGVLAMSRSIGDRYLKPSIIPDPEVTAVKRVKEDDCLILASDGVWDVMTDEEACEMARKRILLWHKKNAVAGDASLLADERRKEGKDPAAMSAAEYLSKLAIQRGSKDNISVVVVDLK
S150G: 65%
E152L: 75.4%
E128Y: 90.7%
V143P: -1.57%
R46H: 43.4%
C72Y: 69%
V44N: -30.1%
Q2Y: 86.6%
P50S: -4.16%
R32C: 77.9%
L91W: 14.5%
Q10S: 92.7%
N61A: 88%
K126E: 96.6%
Y115V: -0.615%
E109S: 89.2%
D159F: -18.6%
S9D: 86.4%
T106G: 24.2%

Set 3
Target: RNA binding protein fox-1 homolog 2, RRM domain, GST-SBP tag (RBFOX2, Homo sapiens, UniProt O43251-10, residues 100-194)
Technique: RNA Bind-n-Seq
Molecule type: RNA
Medium: in vitro
Tested at: 365 nM
Notes: natural RNA segment, single round, ends assumed
Relative to: no-protein control
Direction: higher = stronger binding
Endpoint: RBNS enrichment (R)
Constant ends, left off below: GGGAGUUCUACAGUCCGACGAUC … UGGAAUUCUCGGGUGCCAA
Target sequence (chain): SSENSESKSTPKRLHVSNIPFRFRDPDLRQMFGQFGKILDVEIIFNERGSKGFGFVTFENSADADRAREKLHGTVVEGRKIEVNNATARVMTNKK
CUGGACUUCGCCCCCAGGCCUAGGACCGCGGUGGGUGGAACCCUGCUACUGCCCCAACAGGGACUCCAAUCAAUCGGAGUUCUCCCCUUGCCGGAGCUGCCCUUCACCUU: 0.336
AUUACAAGAUUUGGCAGCCAUGAUAAUAGGUCAUAUGUUGUAUUUCGUUUGAUUUUUUUUCUGUAAAUGUCUGCACUAAGGGUUUCUUUCAGUUUGCCUUUUAUGUAAAU: 0.712
AAAAAAAAGUCAAAAGAUAGAGAAUACAAGAAAAGUUUUUGGGAUAUAAUUUGAAUGACUGUGAAAACAUAUGACCUUUGAUAACGAACUCAUUUGCUCACUCCUUGACA: 0.634
AUGCCUAAGGGGAGGCCCAACACCAUGAACAACUACGGGGUGCUGCUGCACGAGCUCGGGCUGGACGAGCCGCUGAUGACACCACUGCGGGAGCGCUUCCUGCAGCCGCU: 0.447
UUGGAUCGCUUUUGUGACUGUUCAUCUGUCCUUGACAGUGGCUGUCAUCUUGACUACUUUGUUGAUUUGUUGGUAUUGGGGACAUUUUAAAGGCUGAGUUAUUUUUGAAU: 0.944
ACACUGAUAUAGCCAAUUAGAUUUAAAAUGUCUUCAAAAAUUACUUUAUUUUAUUUAAAGCAUCUGUUUAAUGCAACUUUUAAUCAGAUUUUGCAAAGGGUAUGUAUGUA: 1.43
CUUCCAAGAUGAAGAGGAGAAGCAGGCCAACCCUCAAUAAUUGCAAGCCUGAAGAGAAGUGAUCUUAGAGAAAGCAGAGAACAGAAUGGACUGGAUAGACAUCUUGACUC: 1.26
GCGGGCAGAGAUGCUUCACACACACUUGCCCUAAGGGGUGGACCCUUCCUGGGAUGUCAGCUCCAGCACUGCCAGCCACCCCCACUGCUCUCUUUGGGACCUGGCCGUGC: 0.33

Set 4
Target: Histone acetyltransferase KAT6A, winged helix 2, GST fusion (KAT6A, Homo sapiens, UniProt Q92794, residues 85-181)
Technique: protein binding microarray
Molecule type: double-stranded DNA, one strand shown
Medium: in vitro
Tested at: not given
Notes: 8-mer, flanks averaged, mean of 2 arrays, mostly near background
Relative to: not given
Direction: higher = stronger binding
Endpoint: E-score
Residues (chain): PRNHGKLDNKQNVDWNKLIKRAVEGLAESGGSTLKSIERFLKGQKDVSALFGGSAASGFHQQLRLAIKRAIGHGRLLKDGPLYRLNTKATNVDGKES
CAGTGCGG: 0.304
GTAACTAC: -0.0924
TGCTCACA: -0.0115
AAGCTAAT: 0.114
CATGACAG: -0.0686
CATTTTTA: -0.0825
GCGGCTAC: 0.216
AGCCCGGA: 0.11
ATAAATAT: 0.0903
AAGTTGCG: -0.025
ATCGATCC: -0.24
GATAGAGA: -0.0163
AGCGCGAC: -0.0625
TATGCATA: -0.144
CACAAGTG: -0.108
CATCGAAC: 0.099
GTCTTGGA: -0.208
CATGTGTA: -0.146
AAACGGGT: 0.0127
ACGATTTC: -0.058
CTAACGCC: 0.0217
CGGTTTGA: 0.0488
GTTGTGGA: -0.158
ATGAAGCG: -0.0965
CCGGCACG: 0.126

Set 5
Target: Sal-like protein 4, full length isoform B (SALL4, Homo sapiens, UniProt Q9UJQ4-2, residues 1-616)
Technique: universal PBM
Molecule type: double-stranded DNA, one strand shown
Medium: in vitro
Tested at: not given
Notes: 8-mer, flanks averaged, mean of replicates
Direction: higher = stronger binding
Endpoint: E-score
TAAGCCCA: 0.0445
AATAGGAG: 0.0794
ACCTGTCT: -0.102
AGCCCACA: -0.0667
AAAAGTTG: 0.0761
GAACGGTC: -0.205
AATGTAGC: 0.0883
AAGCCCTA: 0.102
CGTACTAG: -0.0413
AGGGATCG: -0.147
CAAATAAG: 0.0676
CATTAGTA: 0.196
CTTGCTGC: -0.22
GAGCGCAC: -0.241
CACTTTGG: -0.00833
ACCGAAAC: -0.137
AGGACGGG: -0.184
CTCTAGAC: -0.0136
AGTCGTAT: 0.14
CAAGCGAC: -0.118
CATAGTAC: 0.017
AATTCCTC: -0.0206
ACACCTCT: -0.163
ACCCGACC: -0.201
AGGGATTC: -0.2

For quick reference, copied from above (set 5):
AATAGGAG: 0.0794
GAACGGTC: -0.205
AAAAGTTG: 0.0761
AATGTAGC: 0.0883
CTTGCTGC: -0.22
TAAGCCCA: 0.0445
CATAGTAC: 0.017
AGGGATTC: -0.2
AGTCGTAT: 0.14
AGCCCACA: -0.0667
AATTCCTC: -0.0206
ACACCTCT: -0.163
GAGCGCAC: -0.241
